Measurements gathered from unrelated publications.
Lines come from different studies, so protocols differ. Numbers after ± are the reported error. Converted amounts (≈) assume the structure as drawn.

Structure (SMILES) = CNC(CC(C)C)C(=O)NC1C(=O)NC(CC(N)=O)C(=O)NC2C(=O)NC3C(=O)NC(C(=O)NC(C(=O)O)c4cc(O)cc(O)c4-c4cc3ccc4O)C(O)c3ccc(c(Cl)c3)Oc3cc2cc(c3OC2OC(CO)C(O)C(O)C2OC2CC(C)(NCc3ccc(-c4ccc(Cl)cc4)cc3)C(O)C(C)O2)Oc2ccc(cc2Cl)C1O (stereo not shown); organism = Enterococcus faecalis and Enterococcus faecium; test system = VanA, 4 strains; how to read = baseline: vancomycin over cpd MIC; endpoint = potency improvement; value = ~100 fold
Structure (SMILES) = [O-][N+]1=C(c2ccccc2)C2=NCCN2c2ccccc21; organism = Bacteroides fragilis; test = microbial growth; test system = ATCC25285; endpoint = MIC; value = 0.125 µg/mL (≈ 0.475 µM)
Structure (SMILES) = CCN1CCNC1=[S+][Ag-3]([O][N+](=O)[O-])([P+](c1ccccc1)(c1ccccc1)c1ccccc1)[P+](c1ccccc1)(c1ccccc1)c1ccccc1; organism = Staphylococcus epidermidis; test system = MTCC 435, DMSO; setting = 0.1 mL of 50 mg/mL in 8 mm well, 18 to 24 h; endpoint = inhibition zone diameter; value = 30 mm
Structure (SMILES) = [Cl-].[Cl-].[Mn+2].c1ccc(CN2CCNCCN(Cc3ccccc3)CCNCC2)cc1; organism = Leishmania donovani; test = parasite growth, resazurin; setting = 72 h, amastigote; endpoint = IC50; value = > 20 µM
Structure (SMILES) = COc1ccc(-c2oc3ccc(-c4cc(OC)c(OC)c(OC)c4)cc3c2C#CC2(O)CCCCC2)cc1; organism = hepatitis C virus; test = HCV replicon replication; test system = Huh-7.5.1, genotype 1a transient replicon; setting = 10 µM; how to read = baseline: DMSO; endpoint = remaining activity; value = 86.4%
Structure (SMILES) = CC[C@H](C)[C@H](NC(=O)[C@H](CCCCN)NC(=O)[C@H](CCCCN)NC(=O)[C@H](CC(C)C)NC(=O)[C@H](CCCCN)NC(=O)[C@H](CCC(=O)O)NC(=O)[C@H](CCCCN)NC(=O)[C@@H](NC(=O)[C@H](CCCCN)NC(=O)[C@H](CC(N)=O)NC(=O)[C@H](CCCNC(=N)N)NC(=O)[C@H](Cc1ccccc1)NC(=O)[C@H](CCCCN)NC(=O)[C@H](CCCNC(=N)N)NC(=O)[C@H](CC(C)C)NC(=O)[C@H](CCCNC(=N)N)NC(=O)[C@H](CCCCN)NC(=O)[C@H](CCCNC(=N)N)NC(=O)[C@@H](N)CC(C)C)[C@@H](C)CC)C(=O)NCC(=O)N[C@@H](CCC(N)=O)C(=O)N[C@@H](CCCCN)C(=O)N[C@H](C(=O)N[C@@H](CCC(N)=O)C(=O)NCC(=O)N[C@@H](Cc1ccccc1)C(=O)N[C@H](C(=O)N1CCC[C@H]1C(=O)N[C@@H](CCCCN)C(=O)N[C@@H](CC(C)C)C(=O)O)C(C)C)[C@@H](C)CC; organism = Staphylococcus epidermidis; test = inhibition zone; test system = penicillin-resistant P1389; endpoint = lethal concentration; value = 1.15 µM
Structure (SMILES) = Nc1ccn(C[C@@H](CO)OCP(=O)(O)OCCCS(=O)(=O)CCCCCCCCCCCCC2CCC2)c(=O)n1; organism = human gammaherpesvirus 4; test = qPCR; test system = Akata; how to read = baseline: CC50 over EC50; endpoint = selectivity index; value = 241
Structure (SMILES) = CN[C@@H]1[C@H](O)[C@H](NC)[C@H]2O[C@]3(O)[C@H](O[C@@H]2[C@H]1O)O[C@H](C)C[C@@]3(O)CNCc1ccccc1; organism = Neisseria meningitidis; test system = ATCC 13077; setting = 40 µg per disc; endpoint = inhibition zone diameter; value = 16 to 21.5 mm
Structure (SMILES) = CC(=O)[O-].F[P-](F)(F)(F)(F)F.[Co+2].c1ccc(CN2CCCNCCN(Cc3ccccc3)CCCNCC2)cc1; organism = Leishmania donovani; test system = THP-1-derived macrophages, intracellular amastigotes; endpoint = IC50; value = > 15 µM
Structure (SMILES) = CC(CCC(=O)[O-])C1CCC2C3CCC4CC(O)CCC4(C)C3CC(O)C12C.C[N+](C)(C)CC(O)CC(=O)O (stereo not shown); organism = Enterococcus faecalis; test system = TISTR 927; setting = 1 mg per disc, 18 to 24 h, 37 °C, 6 mm disc; endpoint = inhibition zone diameter; value = 9.8 ± 1.2 mm
Structure (SMILES) = CC(=O)[O-].F[P-](F)(F)(F)(F)F.[Co+2].c1ccc(CN2CCCN3CCN(CCCN(Cc4ccccc4)CC3)CC2)cc1; organism = Leishmania donovani; test system = THP-1-derived macrophages, intracellular amastigotes; endpoint = IC50; value = > 15 µM
Structure (SMILES) = CCn1c(-c2ccc(OC)cc2)c(-c2ccc(OC)cc2)n(CC)c1=[Se+][Au-][P+](CC)(CC)CC.[Cl-]; organism = Acinetobacter baumannii; test system = carbapenem-resistant; setting = 10, 20, 40 µM, 2 h; how to read = baseline: untreated; endpoint = superoxide dismutase activity; value = decreased
Structure (SMILES) = Cc1nccc2c3ccccc3n(Cc3cccnc3)c12; organism = Echinococcus granulosus sensu stricto; test system = protoscoleces; setting = 48 h; endpoint = LC50; value = 57 ± 2 µM

A few entries again:
Structure (SMILES) = COc1ccc(-c2oc3ccc(-c4cc(OC)c(OC)c(OC)c4)cc3c2C#CC2(O)CCCCC2)cc1; organism = hepatitis C virus; test = HCV replicon replication; test system = Huh-7.5.1, genotype 1a transient replicon; setting = 10 µM; how to read = baseline: DMSO; endpoint = remaining activity; value = 86.4%
